Experimental data pooled from the literature.
A part holds a random share of what one study measured. Positions count from the first letter of the parent shown.

Series 1
Target: CCNA2, cyclin fold, Cln2 fusion (human)
Technique: yeast growth competition, sequencing
Sample: yeast
Notes: strong parent motif
Baseline: not given
Direction: higher = stronger binding
Starting sequence: CDKN1A docking peptide (human); SKACRRLFGPVDS
Variant	normalised enrichment score
P10R	4.74
L7R	0.94
A3N	0.44
R5P	-0.29
P10D	5.78
V11G	5.65
R6Q	5.49
G9M	5.67
V11S	6.13
A3G	2.24
P10G	5.3
A3L	2.6
A3H	2.96
S1A	5.39
K2D	3.62
C4R	7.07
G9W	5.84
A3P	4.16
P10Y	5.1
R6T	4.18
C4G	1.47
F8M	0.401
P10H	5.03
R6S	4.72
K2V	4.61

Series 2
Target: RNA binding protein fox-1 homolog 2, RRM domain, GST-SBP tag (RBFOX2, Homo sapiens, UniProt O43251-10, residues 100-194)
Technique: RNA Bind-n-Seq
Molecule type: RNA
Sample: in vitro
Tested at: 365 nM
Notes: natural RNA segment, single round, ends assumed
Baseline: no-protein control
Direction: higher = stronger binding
Shared flanks, not repeated: GGGAGUUCUACAGUCCGACGAUC … UGGAAUUCUCGGGUGCCAA
Construct (chain): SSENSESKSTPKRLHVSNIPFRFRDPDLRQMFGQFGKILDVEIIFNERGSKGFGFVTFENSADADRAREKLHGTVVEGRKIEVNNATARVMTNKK
Strand	RBNS enrichment (R)
GGCAUAAUUUUACACCAUUUUACCAAACAUACUGAGAACGAAAACUUCAAGGAUGAUGUUAGAAAAAUGUGAUUUAACUAGAACUUGUUUGAUGUUAGCAAAUCAUGGAA	0.329
UCUAGAACCUUCUUCCGUGGCUCUCAGGCAGCCCAAGGCCCAACACCAGUUGGGAUAAGUGUCAGAGUGAGCACCCCCUCAGCCCGUCCUCCACAAGGGACCCUUGAGAU	0.295
AAAUAGCCUCUCUUUCCUGGGAACCCUCUGUGGUCCUCUCUAAAAGACCCAGAUAUACUGUUAUGGCCAUCUAUCCCAGCCCCUUCCACCCUAUGCUCAACCCUGCUGGC	0.385
UCAAAAAUACUUCAUUCUGCUGCUGUUCAGUUGGCUUUUUAAACCUGUCUGCAGUAGGACACUGAAAACAGCAAGAACUUCGGGGUGAACACCCGCUGAUCCUUUAACAA	0.359
UGGAUGUCCAGGCAAGACUGGGCGAAGUUUCUGAGUGGCCCUUUGUUUAGGUGACGUCCUCAGACCUGGACCCCCACCAGCCUCACUCCUCAUCCCAACCAGAGGUGGCA	0.457
AUGAUAACUGUUGUGAGUAGUGCUUUUCAUUCUUCUCACUUGCCUUUGUUACUUAAUGUGCUUUCAGUACAGCAGAUAUGCAAUAUUCACCAAAUAAAUGUAGACUGUGU	0.515
UCCUUGGGGUUCCCCCUCCCUGUGUGAAAUGUAUUAUCACCAGCAGACACUGCCGGGCCUCCCUCCCGGGGGCACUGCCUGAAGGCGAGUGUGGGCAUAGCAUUAGCUGC	0.412
UAAAUAAAUAAUUUUAGAAGUCUUUUUUUCUUUCCACAGACGACUAUUCUGAUCUAUUUUUUCCAGCCAUGUCACAAAGUGUGAAUUCCUACCAGCUAUUGACAGAGUAC	0.679
UCCUGUUCAGACUUUUCCUGAUGACAAUAGUAUCGAGGACACACCAUCAAAAUGUUACUGCCGGUUGAAAGCCAUGAUCAUGUGCAAAGGAUGUGGAGCUUUCUGCCAUG	0.868
UGGAAUGGGUUCUGUGUUUGAAAGCUGUUAGAACACUAACCAGCAGGUUACUUCUCUCCGCAGGGGCUGAAGACAGAUGUGUCAGCCCAUGGGAACCAGCCUGGGCCCUA	0.381
AGGAGAGUAAAUAACUGUGAACAAGAGGCUCUGCCCUUAGGUCUUUGUGGCUGUUUAAGUCACCAACAAUAGAGUCAGGGUAAAGAAUAAAAACACUUUCAUAGCCUCAU	0.344
AUGGUUAAAGAGAAGGCUUUCAAGAACUUUGGAAUAAGAGGCCUGUUUUUAAAAAGGAACUGCCGCAAUCUCUGAAAGACUUCCAAAGAACGUUAGAGCACAGUACAUAC	0.368

Series 3
Target: Sal-like protein 4, full length isoform A (SALL4, Homo sapiens, UniProt Q9UJQ4, residues 1-1053)
Chain of UniProt Q9UJQ4 (whole entry, looked up): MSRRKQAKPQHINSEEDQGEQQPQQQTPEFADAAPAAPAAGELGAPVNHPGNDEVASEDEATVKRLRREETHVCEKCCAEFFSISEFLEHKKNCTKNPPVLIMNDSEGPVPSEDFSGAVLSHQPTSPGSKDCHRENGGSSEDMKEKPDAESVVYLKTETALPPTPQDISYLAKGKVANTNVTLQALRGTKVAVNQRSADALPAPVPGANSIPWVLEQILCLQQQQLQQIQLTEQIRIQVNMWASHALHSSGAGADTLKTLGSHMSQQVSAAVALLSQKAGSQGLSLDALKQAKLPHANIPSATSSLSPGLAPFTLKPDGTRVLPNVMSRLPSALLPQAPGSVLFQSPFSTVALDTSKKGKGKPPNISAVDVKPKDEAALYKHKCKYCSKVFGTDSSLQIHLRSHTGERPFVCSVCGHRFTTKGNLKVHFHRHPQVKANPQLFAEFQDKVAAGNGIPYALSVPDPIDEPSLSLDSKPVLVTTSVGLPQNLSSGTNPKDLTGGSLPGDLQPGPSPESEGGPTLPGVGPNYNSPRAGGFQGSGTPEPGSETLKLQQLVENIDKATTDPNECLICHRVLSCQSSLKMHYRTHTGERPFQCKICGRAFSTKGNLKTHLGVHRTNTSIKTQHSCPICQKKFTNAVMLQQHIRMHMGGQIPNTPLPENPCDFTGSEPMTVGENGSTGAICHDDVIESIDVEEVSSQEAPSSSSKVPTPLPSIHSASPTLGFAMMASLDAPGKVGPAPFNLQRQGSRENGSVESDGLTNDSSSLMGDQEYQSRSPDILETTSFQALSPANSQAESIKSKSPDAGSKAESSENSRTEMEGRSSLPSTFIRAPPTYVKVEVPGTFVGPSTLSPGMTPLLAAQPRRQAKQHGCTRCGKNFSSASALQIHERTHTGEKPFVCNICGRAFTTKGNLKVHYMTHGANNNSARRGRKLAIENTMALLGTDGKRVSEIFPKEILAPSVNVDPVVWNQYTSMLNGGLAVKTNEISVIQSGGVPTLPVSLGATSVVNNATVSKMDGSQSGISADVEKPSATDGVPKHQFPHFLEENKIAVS
Technique: universal PBM
Molecule type: double-stranded DNA, one strand shown
Sample: in vitro
Tested at: 600 nM
Notes: 8-mer, flanks averaged, mean of replicates
Direction: higher = stronger binding
Strand	E-score
AGTTGGTC	-0.0697
ATGTTGAG	0.134
AGCTTTAA	0.178
ACAAAGGC	-0.151
GGTGTGAC	-0.321
ACGTATCC	-0.159
CGATGATC	0.0293
CCCAGATA	-0.0352
ACTGGTGC	-0.251
GGACGCCA	-0.309
ATTTTGTG	0.251
CCATAGGC	-0.191
ACTTAACA	0.0554
CGTGGCCC	-0.384
ATTCGTGA	0.151
CGTAAAAA	0.288
CGGTTGAC	-0.196
ATGGCCGC	-0.29
ACCGTTAC	0.00805
ATTTAAGG	0.0268

Series 4
Target: Histone acetyltransferase KAT6A, both winged helices, GST fusion (KAT6A, Homo sapiens, UniProt Q92794, residues 1-181)
Technique: protein binding microarray
Molecule type: double-stranded DNA, one strand shown
Sample: in vitro
Tested at: not given
Notes: 8-mer, flanks averaged, mean of 2 arrays, mostly near background
Baseline: not given
Direction: higher = stronger binding
Target sequence (chain): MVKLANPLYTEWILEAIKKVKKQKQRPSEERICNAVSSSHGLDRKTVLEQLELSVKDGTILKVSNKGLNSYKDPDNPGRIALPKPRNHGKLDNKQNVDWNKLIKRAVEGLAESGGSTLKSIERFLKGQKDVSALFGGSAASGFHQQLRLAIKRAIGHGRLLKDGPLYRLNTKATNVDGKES
Strand	E-score
ATCCTAAT	-0.0524
CATCATGC	0.0023
CGTTTAAC	0.0696
AGGTCCAC	-0.145
ATATAGAT	-0.0457
ATCCGCTG	0.0738
CTTCAGGC	-0.0165
GGTAGAGA	-0.0846
GCTCAACC	-0.0677
CGCTCACA	0.169
TTGGGAAA	-0.119
ATCGAATG	-0.114
CCGGTCTC	0.0353
GACTGCAC	-0.12
CTAAATAA	-0.0189
CAAAATAC	-0.0161
CAAAAAAA	0.0235
ACTTCCGG	0.133
CAGCACCG	0.131
CATTATCA	-0.0506
TAGGACGA	-0.0407
CCGATGAC	0.106

Series 5
Target: RING finger protein unkempt homolog, zinc fingers 1-6, GST-SBP tag (UNK, Homo sapiens, UniProt Q9C0B0, residues 30-357)
Chain of UniProt Q9C0B0 (30-357, looked up): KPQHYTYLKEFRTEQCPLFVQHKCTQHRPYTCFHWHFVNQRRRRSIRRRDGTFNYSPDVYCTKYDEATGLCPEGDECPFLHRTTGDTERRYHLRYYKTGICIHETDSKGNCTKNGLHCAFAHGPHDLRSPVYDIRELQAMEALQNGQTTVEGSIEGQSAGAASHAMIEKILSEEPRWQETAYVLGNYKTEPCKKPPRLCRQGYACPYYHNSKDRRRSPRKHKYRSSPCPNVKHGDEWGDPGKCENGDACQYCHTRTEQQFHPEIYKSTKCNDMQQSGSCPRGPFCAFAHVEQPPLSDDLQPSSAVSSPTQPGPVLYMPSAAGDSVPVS
Technique: RNA Bind-n-Seq
Molecule type: RNA
Sample: in vitro
Tested at: not given
Notes: RNA with constant flanks, human and mouse sites, ends assumed
Baseline: input RNA pool
Direction: higher = stronger binding
Shared flanks, not repeated: GGGAGUUCUACAGUCCGACGAUC … CAACAGAGGAUUGAGCAUCA
Strand	bound/input enrichment [ratio]
CCCCCUCGGAAGAAAAGGGCCCGGGCAGACCCCACUGUUGAAAGUGAGGAGGCGUUUAAGAAUAGAAUGGAGGUUAAAGUGAAGAUUCCUGAAGAAUUAAAACCAUGGCUUGUUGAGGAC	0.767
GUGAACGCCUUCAGUCAUGCUAUGGAAUUUGUGUAUCCUCAUUACUGUAUCAUUUGUGGGGUACACCCCUCCCCUCUUUUUUAAAUUAAAUACAGCUCAUUCUUACUGUGGCUUGUAGCA	2.4
GCUGAUGCAAGUAAGGGUGAUGACCUGCUUCCUGCUGGCACUGAGGAUUAUAUCCAUAUAAGAAUUCAACAGAGAAACGGCAGGAAGACCCUUACUACUGUCCAAGGGAUCGCUGAUGAU	0.0968
ACGUUUACCCACUUGAAACAGCAGCUCUCUCUGCUCCCUCUAAUGGAACCAAUCAUUGGAGUGAACUUUGCGCACUUUCUUCCUUAUGGCAGUGGCCAAUUUAAUAGUGGGAAUCGACUU	0.111
AUUCAGCCAGGAGGGUAGAGGUGGCUUUUAAUUUACCAUGUGGGCAUUACUGGACACAUUUUUUUAAAUAUGAAACUUAACCAUGCAUACUUUGUUGAGUAUUGAAGUUGUUCCACUGCU	0.451
UCACCCCAGAGCAUUUUAGAUGAUGUUGCCAUGGUACUUGAUGAAGAAGCAGAAGUUUUUAUAGUCAAAAUGUGGAGAUUAUUGAUAUAUGAAACAGAAGCCAAGAAAAUUGGUCUUGUG	0.314
UGGAGACGGCAGCUGGGCCGGCUUGGCCUCCAUUGAGAUCCGGAGGAUCCAAGGACUGUGAGGCUACAAUGUUGUCAAGACUUUUCCGGAUGCAUGGCCUCUUCGUGGCCUCCCACCCCU	0.0877
AUUAAAAUAUUACUACUGGGUUAUUAACCCUGCUGACAGCAGUGGCAUUGCACCUAAAGGACUAGGUAAGCUCCUCUGCGGCCUCAUUUCCAUUUUCCUGUGUUUAGAUCCGGGGUGCAG	0.96
GAAGAUCCGGAACUGGCUAAGUCUUUCAUUAAGACCUUGUUUGGUGUUCUCUAUGAAGUGUACAGCUCCUCAGCAGGCCCUGCGGUCAGACACAAGUGCCUUAGAGCAAUUCUUAGGAUA	0.316
AGAAAUGCAUAUACAAUGGUUUUGCAUAAACAUGGAGAAAAGCUCUACACUGGACUAAGAGAAGUUGUUACUGAACAUCUCAUAAAUAAGGUGCGAGAAGAUGUACUAAAUUCAUUGAAU	0.0981
GUGAGGCUUUCAGUCAGCUCUAAGGGAAGCGUCAGCACUCCCAACUCCCCCGUGAAGAUGACCCUGAUCCCCAGCCCAAACUCACCCUUCCAGAAAGUGGGGAAACUGGCAAGCUCAGAC	0.283
